Published values from different studies.
Lines come from different studies, so protocols differ. ± gives the spread as reported.
DCN1-like protein 1: DCN1-like protein 1 (Homo sapiens, UniProt Q96GG9)
Sequence of UniProt Q96GG9 (whole entry, looked up): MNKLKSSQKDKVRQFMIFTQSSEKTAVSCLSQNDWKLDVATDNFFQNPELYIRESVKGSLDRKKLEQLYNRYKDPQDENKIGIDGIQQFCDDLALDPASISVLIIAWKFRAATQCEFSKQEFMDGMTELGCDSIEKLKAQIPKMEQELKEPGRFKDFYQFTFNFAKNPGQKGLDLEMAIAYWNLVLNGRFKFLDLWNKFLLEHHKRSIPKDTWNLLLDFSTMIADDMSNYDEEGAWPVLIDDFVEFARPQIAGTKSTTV
GLP1R: Glucagon-like peptide 1 receptor (GLP1R, Homo sapiens, UniProt P43220)
Sequence of UniProt P10635 (whole entry, unmodified, looked up): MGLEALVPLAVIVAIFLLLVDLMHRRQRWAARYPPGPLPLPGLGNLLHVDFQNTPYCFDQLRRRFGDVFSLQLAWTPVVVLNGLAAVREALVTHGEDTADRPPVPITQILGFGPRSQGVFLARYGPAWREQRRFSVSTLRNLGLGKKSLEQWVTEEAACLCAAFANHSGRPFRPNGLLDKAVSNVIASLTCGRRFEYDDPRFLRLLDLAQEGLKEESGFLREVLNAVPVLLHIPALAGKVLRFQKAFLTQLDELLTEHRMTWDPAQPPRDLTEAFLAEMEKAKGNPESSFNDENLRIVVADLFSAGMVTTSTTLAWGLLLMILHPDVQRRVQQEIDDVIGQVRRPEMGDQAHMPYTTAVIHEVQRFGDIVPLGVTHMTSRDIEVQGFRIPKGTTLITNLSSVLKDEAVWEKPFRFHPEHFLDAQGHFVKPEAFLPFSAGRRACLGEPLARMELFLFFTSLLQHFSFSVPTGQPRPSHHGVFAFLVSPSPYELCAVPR
Sequence of UniProt Q8VJU4 (whole entry, looked up): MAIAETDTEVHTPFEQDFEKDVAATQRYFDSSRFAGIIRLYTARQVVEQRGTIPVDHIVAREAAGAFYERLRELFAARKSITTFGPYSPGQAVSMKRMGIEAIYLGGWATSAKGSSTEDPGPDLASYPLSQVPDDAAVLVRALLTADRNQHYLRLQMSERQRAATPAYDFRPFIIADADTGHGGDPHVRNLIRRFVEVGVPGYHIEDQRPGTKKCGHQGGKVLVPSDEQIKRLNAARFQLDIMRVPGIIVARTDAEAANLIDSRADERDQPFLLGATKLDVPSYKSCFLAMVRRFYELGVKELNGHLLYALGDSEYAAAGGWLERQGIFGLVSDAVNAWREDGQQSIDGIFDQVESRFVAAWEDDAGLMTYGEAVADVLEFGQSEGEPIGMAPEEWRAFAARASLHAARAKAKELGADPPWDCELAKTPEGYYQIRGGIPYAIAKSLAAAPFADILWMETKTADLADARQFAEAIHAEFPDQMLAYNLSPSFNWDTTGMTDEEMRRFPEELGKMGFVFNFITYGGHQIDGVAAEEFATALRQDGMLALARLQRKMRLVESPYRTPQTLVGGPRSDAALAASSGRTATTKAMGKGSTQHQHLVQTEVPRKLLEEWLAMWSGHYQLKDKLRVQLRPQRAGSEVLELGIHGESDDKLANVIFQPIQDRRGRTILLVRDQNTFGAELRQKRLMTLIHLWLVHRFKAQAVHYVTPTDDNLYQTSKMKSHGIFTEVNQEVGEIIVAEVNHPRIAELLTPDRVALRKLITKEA
Sequence of UniProt P08908 (whole entry, looked up): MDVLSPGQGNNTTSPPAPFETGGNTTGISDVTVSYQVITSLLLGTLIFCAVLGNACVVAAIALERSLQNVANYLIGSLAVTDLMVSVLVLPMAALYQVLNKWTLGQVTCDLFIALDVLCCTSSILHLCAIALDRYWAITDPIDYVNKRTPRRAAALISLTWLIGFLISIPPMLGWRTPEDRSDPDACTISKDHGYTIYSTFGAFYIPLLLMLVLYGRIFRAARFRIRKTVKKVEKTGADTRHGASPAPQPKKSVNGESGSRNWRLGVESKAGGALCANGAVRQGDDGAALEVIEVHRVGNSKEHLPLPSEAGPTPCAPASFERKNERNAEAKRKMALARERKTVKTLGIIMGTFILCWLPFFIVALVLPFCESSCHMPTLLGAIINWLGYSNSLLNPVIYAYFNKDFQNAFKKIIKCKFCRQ
Sequence of UniProt Q9UNU6 (whole entry, looked up): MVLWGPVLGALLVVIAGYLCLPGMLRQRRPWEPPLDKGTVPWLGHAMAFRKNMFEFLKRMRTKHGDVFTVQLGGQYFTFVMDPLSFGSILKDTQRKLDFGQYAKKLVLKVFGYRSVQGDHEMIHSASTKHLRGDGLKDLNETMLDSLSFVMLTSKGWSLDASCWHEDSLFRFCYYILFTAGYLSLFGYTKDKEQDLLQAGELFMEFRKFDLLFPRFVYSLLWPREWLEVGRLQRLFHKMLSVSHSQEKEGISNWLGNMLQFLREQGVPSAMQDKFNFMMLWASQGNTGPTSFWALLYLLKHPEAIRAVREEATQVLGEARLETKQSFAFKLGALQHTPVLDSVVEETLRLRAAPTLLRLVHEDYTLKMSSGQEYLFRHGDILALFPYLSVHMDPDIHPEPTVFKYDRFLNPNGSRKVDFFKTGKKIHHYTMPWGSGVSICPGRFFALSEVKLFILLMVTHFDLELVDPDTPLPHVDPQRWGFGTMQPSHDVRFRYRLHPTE
Sequence of UniProt P08172 (whole entry, looked up): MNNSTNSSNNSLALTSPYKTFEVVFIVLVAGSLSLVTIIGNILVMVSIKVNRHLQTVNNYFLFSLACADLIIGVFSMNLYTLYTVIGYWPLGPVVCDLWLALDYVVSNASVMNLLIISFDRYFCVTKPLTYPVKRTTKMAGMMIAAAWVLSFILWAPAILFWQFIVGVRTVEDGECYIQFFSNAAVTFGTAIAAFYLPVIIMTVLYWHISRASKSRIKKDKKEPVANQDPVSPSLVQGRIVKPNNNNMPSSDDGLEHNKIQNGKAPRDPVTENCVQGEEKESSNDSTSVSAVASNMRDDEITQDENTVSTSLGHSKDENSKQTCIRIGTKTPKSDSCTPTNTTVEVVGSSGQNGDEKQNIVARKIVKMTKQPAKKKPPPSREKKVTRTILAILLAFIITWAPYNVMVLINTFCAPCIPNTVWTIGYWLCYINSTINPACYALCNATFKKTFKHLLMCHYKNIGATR
Sequence of UniProt P04629 (whole entry, looked up): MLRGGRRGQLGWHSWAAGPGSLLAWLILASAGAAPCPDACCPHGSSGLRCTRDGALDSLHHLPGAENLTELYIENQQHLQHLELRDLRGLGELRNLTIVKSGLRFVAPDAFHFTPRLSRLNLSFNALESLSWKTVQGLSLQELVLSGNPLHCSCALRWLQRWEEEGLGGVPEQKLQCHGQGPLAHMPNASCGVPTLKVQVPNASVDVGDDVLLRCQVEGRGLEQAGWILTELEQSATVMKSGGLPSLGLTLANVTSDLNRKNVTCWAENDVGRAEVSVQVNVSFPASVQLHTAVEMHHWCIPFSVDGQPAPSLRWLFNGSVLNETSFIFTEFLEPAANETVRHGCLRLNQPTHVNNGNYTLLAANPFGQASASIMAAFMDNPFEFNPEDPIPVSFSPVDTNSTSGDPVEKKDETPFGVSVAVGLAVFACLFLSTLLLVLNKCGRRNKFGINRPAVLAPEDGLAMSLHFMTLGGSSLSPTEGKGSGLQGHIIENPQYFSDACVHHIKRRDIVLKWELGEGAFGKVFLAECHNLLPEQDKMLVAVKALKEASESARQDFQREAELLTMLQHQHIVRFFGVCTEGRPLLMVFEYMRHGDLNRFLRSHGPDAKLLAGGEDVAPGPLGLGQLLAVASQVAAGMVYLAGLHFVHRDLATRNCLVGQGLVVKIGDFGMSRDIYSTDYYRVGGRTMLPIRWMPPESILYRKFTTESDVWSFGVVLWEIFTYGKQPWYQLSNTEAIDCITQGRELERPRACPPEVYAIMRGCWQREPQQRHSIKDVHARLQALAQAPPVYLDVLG
Sequence of UniProt Q8NET8 (whole entry, unmodified, looked up): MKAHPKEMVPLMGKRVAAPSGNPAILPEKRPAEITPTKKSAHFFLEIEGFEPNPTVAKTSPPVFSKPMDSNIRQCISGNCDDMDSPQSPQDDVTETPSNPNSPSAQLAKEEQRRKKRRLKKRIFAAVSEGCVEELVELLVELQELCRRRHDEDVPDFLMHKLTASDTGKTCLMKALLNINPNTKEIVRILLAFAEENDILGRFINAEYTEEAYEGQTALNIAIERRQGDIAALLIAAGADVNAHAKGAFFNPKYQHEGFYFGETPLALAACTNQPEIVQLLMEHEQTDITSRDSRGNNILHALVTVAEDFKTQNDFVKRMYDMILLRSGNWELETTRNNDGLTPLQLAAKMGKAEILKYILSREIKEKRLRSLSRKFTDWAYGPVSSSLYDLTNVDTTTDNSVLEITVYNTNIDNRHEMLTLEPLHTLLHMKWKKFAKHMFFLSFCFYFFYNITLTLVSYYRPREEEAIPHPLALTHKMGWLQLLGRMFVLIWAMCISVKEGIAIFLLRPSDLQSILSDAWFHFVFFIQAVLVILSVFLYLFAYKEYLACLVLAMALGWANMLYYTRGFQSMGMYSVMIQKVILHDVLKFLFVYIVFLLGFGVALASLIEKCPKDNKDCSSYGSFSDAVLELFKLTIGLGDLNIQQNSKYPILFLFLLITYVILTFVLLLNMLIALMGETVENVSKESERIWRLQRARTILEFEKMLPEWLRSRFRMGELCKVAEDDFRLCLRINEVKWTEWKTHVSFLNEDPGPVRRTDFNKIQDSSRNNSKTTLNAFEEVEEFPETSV

Cc1nn(-c2ccccc2)c2c1[C@H](c1ccc(O)nc1)[C@H](NC(=O)c1cccc(C(F)(F)F)c1)C(=O)N2  IC50 (DCN1-like protein 1): > 15 µM
CC(C)OC(=O)[C@H](C)N[P@](=O)(OC[C@H]1O[C@@H](n2ccc(=O)[nH]c2=O)[C@](C)(F)[C@@H]1O)Oc1ccccc1  Kd (Genome polyprotein, NS5 (GP1, West Nile virus, UniProt Q9Q6P4); binding): 6810 µM
Cc1cccc([C@H](C)c2cnc[nH]2)c1C  Kd (7-alpha-hydroxycholest-4-en-3-one 12-alpha-hydroxylase (Homo sapiens, UniProt Q9UNU6); binding; 20 min, pH 7.4): 396 µM
CC[C@H](C)[C@H](NC(=O)[C@H](Cc1ccccc1)NC(=O)[C@H](CCC(=O)O)NC(=O)[C@H](CCCNC(=N)N)NC(=O)[C@H](C)NC(=O)[C@H](C)NC(=O)[C@H](CCC(N)=O)NC(=O)[C@H](CCCCNc1c(NCCCCCN(O)C(=O)CCC(=O)NCCCCCN(O)C(=O)CCC(=O)NCCCCCN(O)C(C)=O)c(=O)c1=O)NC(=O)[C@H](CCC(=O)O)NC(=O)[C@H](CC(C)C)NC(=O)[C@H](Cc1ccc(O)cc1)NC(=O)[C@H](CO)NC(=O)[C@H](CO)NC(=O)[C@@H](NC(=O)[C@H](CC(=O)O)NC(=O)[C@H](CO)NC(=O)[C@@H](NC(=O)[C@H](Cc1ccccc1)NC(=O)[C@@H](NC(=O)CNC(=O)[C@H](CCC(=O)O)NC(=O)[C@H](C)NC(=O)CCc1cnc[nH]1)[C@@H](C)O)[C@@H](C)O)C(C)C)C(=O)N[C@@H](C)C(=O)N[C@@H](Cc1c[nH]c2ccccc12)C(=O)N[C@@H](CC(C)C)C(=O)N[C@H](C(=O)N[C@@H](CCCCNc1c(NCCCCCN(O)C(=O)CCC(=O)NCCCCCN(O)C(=O)CCC(=O)NCCCCCN(O)C(C)=O)c(=O)c1=O)C(=O)NCC(=O)N[C@@H](CCCNC(=N)N)C(=O)N[C@@H](CCCCNC(=O)COCCOCCNC(=O)COCCOCCNC(=O)CC[C@H](NC(=O)CCCCCCCCCCCCCCCCC(=O)O)C(=O)O)C(=O)O)C(C)C  EC50 (GLP1R; cAMP reporter gene, agonist, CRE luciferase; BHK; without Zr, 1% HSA): 0.0017 µM
CNC(C)Cc1ccc2c(c1)OCO2 (stereo not shown)  IC50 (Cytochrome P450 2D6 (CYP2D6, Homo sapiens, UniProt P10635); enzyme activity, time-dependent inhibitor; preincubation without NADPH, together with: dextromethorphan O-demethylation): 29.8 µM
C[C@H]1CN(c2n[nH]c3nc(N[C@H]4CC[C@H](NS(=O)(=O)CCC(F)(F)F)CC4)ncc23)CCO1  relative abundance (NTRK1 (Homo sapiens, UniProt P04629); inhibitor, Kinobeads competition profiling; 20 µM; baseline: vehicle): 1.14
CC(=O)NCCN1C(=O)[C@@H](NC(=O)c2cccc(C(F)(F)F)c2)[C@@H](c2ccc(F)cc2)c2c(C)nn(-c3ccccc3)c21  IC50 (DCN1-like protein 1): > 15 µM
COc1cc(Nc2ncc(F)c(Nc3ccc4c(n3)NC(=O)C(C)(C)O4)n2)cc(OC)c1OC  IC50 (Ryanodine receptor 3 (Rattus norvegicus, UniProt A0ABK0LPH6)): > 10 µM
CCCc1cc(O)c2c(c1)OC(C)(C)[C@@H]1CCC(C)=C[C@@H]21  EC50 (TRPV3 (Homo sapiens, UniProt Q8NET8, H430A); calcium uptake, agonist; HEK293S; mutant H430A, site 3): 3.84 ± 0.18 µM
CC(C)(COP(=O)(O)OP(=O)(O)OC[C@H]1O[C@@H](n2cnc3c(N)ncnc32)[C@H](O)[C@@H]1OP(=O)(O)O)[C@@H](O)C(=O)NCCC(=O)NCCS  Kd (icl2 (Mycobacterium tuberculosis, UniProt Q8VJU4)): 209 ± 9 µM
CC[C@H](C)[C@H](NC(=O)[C@H](Cc1ccccc1)NC(=O)[C@H](CCC(=O)O)NC(=O)[C@H](CCCNC(=N)N)NC(=O)[C@H](C)NC(=O)[C@H](C)NC(=O)[C@H](CCC(N)=O)NC(=O)[C@H](CCC(=O)O)NC(=O)[C@H](CCC(=O)O)NC(=O)[C@H](CC(C)C)NC(=O)[C@H](Cc1ccc(O)cc1)NC(=O)[C@H](CO)NC(=O)[C@H](CO)NC(=O)[C@@H](NC(=O)[C@H](CC(=O)O)NC(=O)[C@H](CO)NC(=O)[C@@H](NC(=O)[C@H](Cc1ccccc1)NC(=O)[C@@H](NC(=O)CNC(=O)[C@H](CCC(=O)O)NC(=O)[C@H](C)NC(=O)CCc1cnc[nH]1)[C@@H](C)O)[C@@H](C)O)C(C)C)C(=O)N[C@@H](C)C(=O)N[C@@H](Cc1c[nH]c2ccccc12)C(=O)N[C@@H](CC(C)C)C(=O)N[C@H](C(=O)N[C@@H](CCCCNC(=O)COCCOCCNC(=O)COCCOCCNC(=O)CC[C@H](NC(=O)CCCCCCCCCCCCCCCCC(=O)O)C(=O)O)C(=O)NCC(=O)N[C@@H](CCCNC(=N)N)C(=O)N[C@@H](CCCCNc1c(NCCCCCN(O)C(=O)CCC(=O)NCCCCCN(O)C(=O)CCC(=O)NCCCCCN(O)C(C)=O)c(=O)c1=O)C(=O)NCC(=O)NCC(=O)N[C@@H](CO)C(=O)N[C@@H](CCCCNc1c(NCCCCCN(O)C(=O)CCC(=O)NCCCCCN(O)C(=O)CCC(=O)NCCCCCN(O)C(C)=O)c(=O)c1=O)C(=O)O)C(C)C  EC50 (GLP1R; cAMP reporter gene, agonist, CRE luciferase; BHK; without Zr, 1% HSA): 0.00016 µM
Cc1nn(-c2ccccc2)c2c1[C@H](c1ccc(F)cc1)[C@H](NC(=O)c1cccc(C(F)(F)F)c1)C(=O)N2CCO[Si](C)(C)C(C)(C)C  IC50 (DCN1-like protein 1): > 15 µM
Clc1cccc(N2CCNCC2)c1Cl  EC50 (CHRM2 (Homo sapiens, UniProt P08172); ERK1/2 phosphorylation, agonist; CHO cells): > 20 µM
Cc1nn(-c2ccccc2)c2c1[C@H](c1ccc(F)cc1)[C@H](NC(=O)c1cccc(C(F)(F)F)c1)C(=O)N2CCNC(=O)OC(C)(C)C  IC50 (DCN1-like protein 1): > 15 µM
CC[C@@H](CO)NC(=O)[C@@H]1C=C2c3cccc4c3c(cn4C)C[C@H]2N(C)C1  Ki (HTR1A (Homo sapiens, UniProt P08908)): 0.025 µM
CC(NC(C)(C)C)C(=O)c1cccc(Cl)c1 (stereo not shown)  IC50 (Cytochrome P450 2D6 (CYP2D6, Homo sapiens, UniProt P10635, R296C/S486T/T107I); pH 7.4): 40.6 µM

Some of these lines once more:
COc1cc(Nc2ncc(F)c(Nc3ccc4c(n3)NC(=O)C(C)(C)O4)n2)cc(OC)c1OC  IC50 (Ryanodine receptor 3 (Rattus norvegicus, UniProt A0ABK0LPH6)): > 10 µM
